Results pooled from the literature.
Lines come from different studies, so protocols differ. Several values in a cell are separate wells, animals, samples, runs or records. ± marks the error that the study gave.
UniProt P42680, sequence (whole entry, looked up): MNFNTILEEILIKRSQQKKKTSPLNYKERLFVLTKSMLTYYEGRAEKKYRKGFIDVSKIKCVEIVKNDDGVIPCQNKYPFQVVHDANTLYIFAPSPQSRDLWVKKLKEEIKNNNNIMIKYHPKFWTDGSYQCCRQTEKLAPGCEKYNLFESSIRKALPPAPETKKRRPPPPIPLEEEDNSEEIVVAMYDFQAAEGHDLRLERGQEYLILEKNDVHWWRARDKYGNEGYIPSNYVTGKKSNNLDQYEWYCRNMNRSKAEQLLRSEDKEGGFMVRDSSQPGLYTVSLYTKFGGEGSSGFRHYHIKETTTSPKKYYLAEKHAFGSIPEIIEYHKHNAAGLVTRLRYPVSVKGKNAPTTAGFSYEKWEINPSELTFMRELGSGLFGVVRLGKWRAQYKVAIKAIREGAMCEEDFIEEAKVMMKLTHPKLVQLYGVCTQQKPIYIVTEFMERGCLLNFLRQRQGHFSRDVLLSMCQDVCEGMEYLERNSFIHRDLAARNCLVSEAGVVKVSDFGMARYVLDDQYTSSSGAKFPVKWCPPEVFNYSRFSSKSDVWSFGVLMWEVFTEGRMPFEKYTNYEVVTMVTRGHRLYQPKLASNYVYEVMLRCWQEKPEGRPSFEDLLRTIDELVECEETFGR
UniProt P80192, sequence (whole entry, looked up): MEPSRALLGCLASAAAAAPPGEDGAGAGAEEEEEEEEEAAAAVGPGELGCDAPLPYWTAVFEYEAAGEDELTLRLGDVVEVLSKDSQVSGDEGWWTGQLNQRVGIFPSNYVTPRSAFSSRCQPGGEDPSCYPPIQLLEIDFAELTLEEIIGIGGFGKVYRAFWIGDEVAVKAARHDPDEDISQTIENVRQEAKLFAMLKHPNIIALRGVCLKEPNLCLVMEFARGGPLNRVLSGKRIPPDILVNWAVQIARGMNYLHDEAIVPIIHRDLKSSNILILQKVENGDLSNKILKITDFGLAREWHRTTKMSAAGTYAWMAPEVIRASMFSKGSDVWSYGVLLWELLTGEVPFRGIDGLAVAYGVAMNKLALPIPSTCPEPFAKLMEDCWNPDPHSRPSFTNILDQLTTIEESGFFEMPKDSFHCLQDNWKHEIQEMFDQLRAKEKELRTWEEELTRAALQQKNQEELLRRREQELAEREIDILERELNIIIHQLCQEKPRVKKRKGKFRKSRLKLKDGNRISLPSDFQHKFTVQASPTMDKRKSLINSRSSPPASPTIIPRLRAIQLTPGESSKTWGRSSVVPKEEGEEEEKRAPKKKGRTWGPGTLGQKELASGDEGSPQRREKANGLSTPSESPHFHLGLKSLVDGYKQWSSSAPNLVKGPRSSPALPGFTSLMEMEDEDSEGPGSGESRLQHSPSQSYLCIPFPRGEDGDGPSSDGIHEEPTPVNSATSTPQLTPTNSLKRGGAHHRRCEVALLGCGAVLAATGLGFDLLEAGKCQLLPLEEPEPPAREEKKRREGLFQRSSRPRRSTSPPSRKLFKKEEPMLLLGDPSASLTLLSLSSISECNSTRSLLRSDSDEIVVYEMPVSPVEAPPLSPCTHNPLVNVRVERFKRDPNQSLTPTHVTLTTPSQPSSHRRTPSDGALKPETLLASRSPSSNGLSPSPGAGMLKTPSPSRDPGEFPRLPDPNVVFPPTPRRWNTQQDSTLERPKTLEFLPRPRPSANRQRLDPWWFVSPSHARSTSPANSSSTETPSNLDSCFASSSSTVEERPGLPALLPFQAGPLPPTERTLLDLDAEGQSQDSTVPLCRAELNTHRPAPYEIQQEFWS
UniProt Q00535, sequence (whole entry, looked up): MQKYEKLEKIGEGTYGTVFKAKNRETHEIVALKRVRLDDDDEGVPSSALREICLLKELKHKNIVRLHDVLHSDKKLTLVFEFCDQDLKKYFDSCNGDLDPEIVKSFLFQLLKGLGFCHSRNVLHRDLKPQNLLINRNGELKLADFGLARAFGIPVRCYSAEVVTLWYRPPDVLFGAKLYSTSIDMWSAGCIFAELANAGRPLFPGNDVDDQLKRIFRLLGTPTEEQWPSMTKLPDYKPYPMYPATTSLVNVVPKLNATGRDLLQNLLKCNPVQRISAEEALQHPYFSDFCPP
UniProt Q12866, sequence (whole entry, looked up): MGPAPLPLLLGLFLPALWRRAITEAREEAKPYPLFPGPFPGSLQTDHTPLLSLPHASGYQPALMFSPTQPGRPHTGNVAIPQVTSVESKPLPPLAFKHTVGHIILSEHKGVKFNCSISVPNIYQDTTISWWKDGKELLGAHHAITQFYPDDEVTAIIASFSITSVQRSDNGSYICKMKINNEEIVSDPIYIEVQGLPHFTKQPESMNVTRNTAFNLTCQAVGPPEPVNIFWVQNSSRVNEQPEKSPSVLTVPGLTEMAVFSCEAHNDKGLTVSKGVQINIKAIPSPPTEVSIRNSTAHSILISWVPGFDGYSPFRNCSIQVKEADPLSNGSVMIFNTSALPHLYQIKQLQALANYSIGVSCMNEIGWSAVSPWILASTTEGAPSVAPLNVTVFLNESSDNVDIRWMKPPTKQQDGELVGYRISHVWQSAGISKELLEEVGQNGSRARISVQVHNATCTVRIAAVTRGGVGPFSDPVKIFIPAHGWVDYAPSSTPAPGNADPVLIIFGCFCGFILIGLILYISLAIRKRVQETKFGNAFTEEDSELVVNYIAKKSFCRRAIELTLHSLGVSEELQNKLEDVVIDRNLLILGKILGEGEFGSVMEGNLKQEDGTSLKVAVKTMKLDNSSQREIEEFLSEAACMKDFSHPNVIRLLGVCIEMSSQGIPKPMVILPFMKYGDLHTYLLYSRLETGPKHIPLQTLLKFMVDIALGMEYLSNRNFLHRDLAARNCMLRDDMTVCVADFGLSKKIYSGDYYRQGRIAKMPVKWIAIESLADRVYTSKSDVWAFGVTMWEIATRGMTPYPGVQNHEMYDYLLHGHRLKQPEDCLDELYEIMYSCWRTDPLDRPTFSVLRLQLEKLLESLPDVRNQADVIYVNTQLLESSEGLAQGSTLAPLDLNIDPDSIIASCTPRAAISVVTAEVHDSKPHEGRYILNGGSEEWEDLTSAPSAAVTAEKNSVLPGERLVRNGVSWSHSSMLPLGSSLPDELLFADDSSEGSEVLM

N[C@H](C(=O)N1CCCC1)C1CCN(c2nccc3c(-c4ncc(Cl)cc4Cl)cccc23)CC1  inhibition (human neutrophils; protein citrullination, inhibitor, flow cytometry, refers to: citrullinated proteins; 10 nM, with: ionomycin): 14.9% and 4.74% and 3.08% and 7.63%
O=C(C[Se]C(=O)c1ccc2ccccc2c1)Nc1cccc(C(F)(F)F)c1  CC50 (NCI60 ovarian subpanel; cytotoxicity, inhibitor; five-dose): 8.37 µM
C#CCN1C(=O)C(CC#C)(C(=O)OCC)Oc2ccccc21 (stereo not shown)  inhibition (HEK293T; cytotoxicity, CCK-8; 25 µM, 72 h): 0.66 ± 0.06%
O=C(C[Se]C(=O)c1ccccc1)Nc1cccc(C(F)(F)F)c1  GI50 (NCI60 renal subpanel; cell growth, inhibitor; five-dose): 2.22 µM
CS(C)(=O)=Nc1ccc(-c2ccc(-c3nc4cc(O[C@@H]5CO[C@H]6[C@@H]5OC[C@H]6O)[nH]c4cc3F)cc2)cc1  inhibition (Mitogen-activated protein kinase kinase kinase 9 (MAP3K9, Homo sapiens, UniProt P80192); enzyme activity, inhibitor; 10 µM): 34%
CC[C@H](C)[C@H](NC(=O)[C@H](CO)NC(=O)[C@H](Cc1ccc(O)cc1)NC(=O)[C@H](Cc1ccc(O)cc1)NC(=O)[C@H](CC(N)=O)NC(=O)CNC(=O)[C@H](CO)NC(=O)[C@H](Cc1ccc(O)cc1)NC(=O)[C@H](CO)NC(=O)[C@H](CO)NC(=O)[C@H](CC(N)=O)NC(=O)COCCOCCNC(=O)CN1CCN(CC(=O)O)CCN(CC(=O)O)CCN(CC(=O)O)CC1)C(=O)N[C@@H](CC(C)C)C(N)=O [copper-64 labelled]  tissue uptake (dynamic PET; KPC mouse Ptf1a-CreER tdTomato, pancreas; intravenous, 4.6 MBq/mouse, 9.5 min, 84 d after tamoxifen): 12.8 %ID/mL
C=CCN1C(=O)C(CC=C)(C(=O)OCC)Oc2cc(F)ccc21 (stereo not shown)  inhibition (HEK293T; cytotoxicity, CCK-8; 6.25 µM, 72 h): 0.04 ± 0.13%
CC(C)[C@H](NC(=O)[C@H](CCCNC(=N)N)NC(=O)[C@@H]1CCCN1C(=O)[C@@H](NC(=O)[C@H](C)NC(=O)[C@H](Cc1ccc(O)cc1)NC(=O)[C@H](CCC(N)=O)NC(=O)[C@H](CCCCN)NC(=O)[C@H](CCCNC(=N)N)NC(=O)[C@@H]1CCCN1C(=O)[C@H](CCC(=O)O)NC(=O)[C@@H](NC(=O)[C@H](C)N)[C@@H](C)O)[C@@H](C)O)C(=O)N[C@@H](Cc1ccccc1)C(=O)N[C@@H](Cc1c[nH]c2ccccc12)C(=O)N[C@H](C(=O)N[C@@H](CC(=O)O)C(=O)N[C@@H](C)C(=O)N1CCC[C@H]1C(=O)NCC(=O)NCCOCCOCCOCCOCCOCCOCCOCCOCCOCCOCCOCCOCCC(=O)N[C@@H](CS)C(N)=O)[C@@H](C)O  selectivity ratio (H661 lung large cell carcinoma; cell binding, phage binding, refers to: output/input phage; 10 min, 37 °C; relative to: control phage): 22 ± 1.5
CC(=O)Oc1ccccc1C(=O)[Se]CC(=O)Nc1cccc(C(F)(F)F)c1  CC50 (NCI60 renal subpanel; cytotoxicity, inhibitor; five-dose): 17.6 µM
CC[C@H](C)[C@@H]([C@@H](CC(=O)N1CCC[C@H]1[C@H](OC)[C@@H](C)C(=O)N[C@H](C)[C@@H](O)c1ccccc1)OC)N(C)C(=O)[C@@H](NC(=O)[C@H](C(C)C)N(C)C(=O)OCc1ccc(NC(=O)[C@H](CCCNC(N)=O)NC(=O)[C@@H](NC(=O)CCCCCN2C(=O)CC(SC[C@H](NC(=O)[C@H](CC(=O)O)NC(=O)[C@H](Cc3ccc(O)cc3)NC(=O)[C@H](Cc3c[nH]c4ccccc34)NC(=O)[C@@H](N)CCCNC(=N)N)C(=O)O)C2=O)C(C)C)cc1)C(C)C (stereo partly shown)  concentration (C57BL/6 mouse, healthy, lung; intraperitoneal, 2.5 mg/kg, 1 h): not detected
COc1ccccc1-c1n[nH]c2nc(NC3CCN(C(=O)Cc4ccc(F)cc4F)CC3)ncc12  relative abundance (bead binding, competition bead pull-down, refers to: LINJ.29.2420; Leishmania donovani extract; 10 µM; relative to: vehicle): 1.19
O=c1n(CCNCCOS(=O)(=O)c2ccccc2)c(=O)n(S(=O)(=O)c2ccccc2)c(=O)n1S(=O)(=O)c1ccccc1  viability (A549; cell growth or viability, MTT; 50 µg/mL, 24 h): 47.7%
O=C1NC2(CC2)COc2ncc(F)cc2[C@H]2COCCN2c2ccn3ncc1c3n2  serum LDH activity (Sprague-Dawley rat, male, serum; oral, 10 mg/kg/day, end of recovery, 4-week subacute toxicity): 919 ± 416 U/L
CC(C)(C)C(=O)OCOP(=O)(OCOC(=O)C(C)(C)C)C1CCCN(O)C1=O (stereo not shown)  log GI50 (SK-MEL-28): -6.49 log M
O=C1NC(=O)c2c1c1cc(F)c[n+]3c1c1c2c2cc(O)ccc2[n]1[Ru-4]312([N]=C=S)[S+]3CC[S+]1CC[S+]2CC3 (stereo not shown)  remaining activity (Tyrosine-protein kinase Tec (TEC, Homo sapiens, UniProt P42680); enzyme activity; 100 nM, human enzyme, with: 10 µM ATP; relative to: untreated): 66%
COc1ccccc1-c1n[nH]c2nc(N[C@H]3CC[C@H](NS(=O)(=O)CC(C)C)CC3)ncc12  relative abundance (bead binding, competition bead pull-down, refers to: LINJ.29.2310; Leishmania donovani extract; 10 µM; relative to: vehicle): 0.85
CCN(CC)CCO.O=C(O)C(Cl)Cl  inhibition (Chenopodium album; herbicidal activity; 15 mg/mL, 21 days, post-emergence greenhouse): 43%
O=C(C[Se]C(=O)c1ccc2ccccc2n1)Nc1cccc(C(F)(F)F)c1  CC50 (NCI60 NSCLC subpanel; NCI60 five-dose screen): 6.42 µM
Cc1cc(Oc2nc(N3CC[C@@H](c4ccncc4)C3)ncc2F)[nH]n1  IC50 (IMR-90; cell proliferation; lung cancer): > 100 µM
CN(C)[C@H]1C[C@@]23CC[C@@]4(O2)C(=CC[C@]2(C)[C@@H](c5ccc6ccncc6c5)CC[C@H]24)C=C3[C@@H](O)[C@@H]1O  inhibition (Cyclin-dependent kinase 5 (CDK5, Homo sapiens, UniProt Q00535); ATP probe labelling, inhibitor, KiNativ profiling; 0.1 µM): 4.3%
COc1ccccc1-c1ccncc1C(=O)Nc1nnc(OCc2ccc(Cl)cc2)s1  colony survival (HCT116 BRCA2-/-; 0.5 µM, average of 3 runs; relative to: untreated): 62.3%
[Cl-].[Cl-].[Ru+2].c1ccc(-c2ccccn2)nc1.c1ccc(-c2ccccn2)nc1.c1ccc2cc3nc4c5cccnc5c5ncccc5c4nc3cc2c1  EC50 (SK-MEL-28; cell viability; normoxia, with: green light 523 nm, 100 J/cm2): 0.179 ± 0.051 µM
O=C(C[Se]C(=O)c1ccco1)Nc1cccc(C(F)(F)F)c1  mean TGI (NCI60 panel; cell growth; five-dose screen): 17.4 µM
CC(C)[C@H]1NC(=O)C[C@H]2/C=C/CCSSC[C@@H](NC1=O)C(=O)N[C@H](Cc1cccc3ccccc13)C(=O)NCC(=O)O2  inhibition (Tyrosine-protein kinase Mer (MERTK, Homo sapiens, UniProt Q12866); enzyme activity, inhibitor; 10 µM): 11.1%
CC(=O)NCSC[C@H](NC(=O)[C@@H]1CCCN1C(=O)[C@H](C)NC(=O)[C@@H](NC(=O)CNC(=O)[C@@H](NC(=O)[C@H](Cc1c[nH]c2ccccc12)NC(=O)[C@H](C)NC(=O)CNC(=O)[C@H](CO)NC(=O)[C@H](C)NC(=O)[C@@H]1CCCN1C(=O)[C@H](Cc1c[nH]c2ccccc12)NC(=O)[C@H](C)NC(=O)[C@H](C)NC(=O)[C@@H](N)Cc1ccc(O)cc1)[C@@H](C)O)[C@@H](C)O)C(=O)N[C@@H](CO)C(=O)N[C@@H](C)C(=O)NCC(=O)N[C@H](C(=O)NCCOCCOCCOCCOCCOCCOCCOCCOCCOCCOCCOCCOCCC(=O)N[C@@H](CS)C(N)=O)[C@@H](C)O  selectivity ratio (HCC78; phage binding; relative to: targeting over control phage): 3.8 ± 0.4
O=C(C[Se]C(=O)c1cccs1)Nc1cccc(C(F)(F)F)c1  mean TGI (NCI60 ovarian subpanel; total growth inhibition, inhibitor; five-dose): 3.56 µM
Cc1cccc(-c2cccc(C)n2)n1.Cc1cccc(-c2cccc(C)n2)n1.F[P-](F)(F)(F)(F)F.F[P-](F)(F)(F)(F)F.[Ru+2].c1ccc2c(-c3nc4c5cccnc5c5ncccc5c4[nH]3)cccc2c1  phototoxicity index (SK-MEL-28; normoxia, with: green light 523 nm, 100 J/cm2; relative to: dark over light EC50): 2
O=C(O)c1ccc(-c2nc(-c3ccccc3Cl)c3sccn23)cc1  fold change (human CD34+ hematopoietic stem cells; megakaryocyte differentiation, flow cytometry, refers to: CD61; 10 µM, day 3, with: TPO; relative to: control): 1.36 fold and 1.53 fold and 1.27 fold and 1.07 fold and 1.18 fold and 1.16 fold and 1.1 fold and 1.12 fold
CSCC[C@H](NC(=O)[C@@H](NC(=O)[C@H](CCC(N)=O)NC(=O)[C@H](CO)NC(=O)[C@@H](N)C(C)C)[C@@H](C)O)C(=O)N[C@@H](CCCNC(=N)N)C(=O)N[C@@H](CCC(N)=O)C(=O)N[C@H](C(=O)N[C@@H](C)C(=O)N[C@H](C(=O)N1CCC[C@H]1C(=O)N[C@@H](CC(C)C)C(=O)N[C@@H](CC(C)C)C(=O)N[C@@H](Cc1c[nH]c2ccccc12)C(=O)N[C@@H](Cc1ccccc1)C(=O)N[C@@H](Cc1c[nH]c2ccccc12)C(=O)N[C@H](C(=O)NCC(=O)N[C@@H](CO)C(=O)N[C@@H](CC(C)C)C(=O)NCCOCCOCCOCCOCCOCCOCCOCCOCCOCCOCCOCCOCCC(=O)N[C@@H](CS)C(N)=O)[C@@H](C)O)C(C)C)[C@@H](C)O  selectivity ratio (H1666 lung adenocarcinoma; cell binding, phage binding, refers to: output/input phage; 10 min, 37 °C; relative to: control phage): 0.84 ± 0.25
Cc1cc(C(=O)Nc2nc3cccc(C)c3n2[C@H]2CCCCN(C(=O)/C=C/CN(C)C)C2)ccn1  multinucleated cells (Trypanosoma brucei; propidium iodide flow cytometry; bloodstream form; concentration not given, 24 h): 11.7%
CC(C)CC(O)(CC(C)C)c1cn(C(=O)N2CCCC2)nn1  protein level (mouse T-cells; SILAC proteomics, refers to: PAIP2B; 1 nM, 6 h, unit not given; relative to: DMSO): 0.92
CNC(=S)NCCCC[C@H](NC(=O)CCc1ccccc1)C(=O)N[C@@H](CCCNC(=N)N)C(=O)N[C@@H](CC1CCCCC1)C(=O)N[C@H](CCCCN)C(=O)N[C@@H](CC1CCCCC1)C(=O)N[C@H](CCCNC(=N)N)C(=O)N[C@@H](CC1CCCCC1)C(N)=O  EC50 (Jurkat; cell growth or viability, MTT; 72 h): 12.7 µM
CC(C)C[C@H](NC(=O)[C@H](CC(=O)O)NC(=O)CNC(=O)[C@@H](N)CCCNC(=N)N)C(=O)N[C@@H](C)C(=O)N[C@H](C(=O)N[C@@H](CC(C)C)C(=O)N[C@@H](CCCNC(=N)N)C(=O)N[C@@H](CCC(N)=O)C(=O)N[C@@H](CC(C)C)C(=O)N[C@@H](C)C(=O)N[C@@H](CCC(N)=O)C(=O)N[C@@H](CCC(=O)O)C(=O)N[C@@H](CC(=O)O)C(=O)NCC(=O)N[C@H](C(=O)N[C@H](C(=O)NCC(=O)N[C@H](C(=O)N[C@@H](CCCNC(=N)N)C(=O)NCCOCCOCCOCCOCCOCCOCCOCCOCCOCCOCCOCCOCCC(=O)N[C@@H](CS)C(N)=O)C(C)C)C(C)C)C(C)C)[C@@H](C)O  selectivity ratio (HCC515; phage binding; relative to: targeting over control phage): 95 ± 29
NC(=S)N/N=C/c1ccc(OCc2ccccc2)cc1  catalase activity (OD450) (IMR-32; 400 µg/mL, 24 h; higher = more activity): 0.067 a.u.
